Measured values gathered from unrelated publications.
Protocols differ between the studies behind these lines.
FKBP3: FKBP3 1-74 (Homo sapiens, UniProt Q00688)
Chain of UniProt Q92945 (whole entry, looked up): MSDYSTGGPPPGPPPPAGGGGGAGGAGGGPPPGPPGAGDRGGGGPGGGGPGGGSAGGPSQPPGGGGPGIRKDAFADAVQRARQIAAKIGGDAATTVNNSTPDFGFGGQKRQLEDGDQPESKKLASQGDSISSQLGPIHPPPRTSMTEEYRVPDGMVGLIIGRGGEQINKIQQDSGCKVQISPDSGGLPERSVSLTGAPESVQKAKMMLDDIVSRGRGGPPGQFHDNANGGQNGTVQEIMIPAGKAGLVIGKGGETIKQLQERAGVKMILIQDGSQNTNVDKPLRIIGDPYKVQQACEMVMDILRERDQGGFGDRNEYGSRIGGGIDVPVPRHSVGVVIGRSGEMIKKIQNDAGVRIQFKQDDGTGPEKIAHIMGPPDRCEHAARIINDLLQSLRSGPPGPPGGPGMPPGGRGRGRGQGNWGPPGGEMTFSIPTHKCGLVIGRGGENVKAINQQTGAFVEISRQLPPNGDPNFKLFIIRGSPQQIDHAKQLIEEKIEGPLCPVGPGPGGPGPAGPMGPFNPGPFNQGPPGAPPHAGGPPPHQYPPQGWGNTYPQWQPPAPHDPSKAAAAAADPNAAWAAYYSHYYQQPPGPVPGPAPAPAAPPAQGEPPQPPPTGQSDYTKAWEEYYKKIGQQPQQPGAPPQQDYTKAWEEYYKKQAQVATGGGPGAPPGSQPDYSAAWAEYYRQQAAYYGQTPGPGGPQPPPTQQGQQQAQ
Chain of UniProt P42224 (whole entry, unmodified, looked up): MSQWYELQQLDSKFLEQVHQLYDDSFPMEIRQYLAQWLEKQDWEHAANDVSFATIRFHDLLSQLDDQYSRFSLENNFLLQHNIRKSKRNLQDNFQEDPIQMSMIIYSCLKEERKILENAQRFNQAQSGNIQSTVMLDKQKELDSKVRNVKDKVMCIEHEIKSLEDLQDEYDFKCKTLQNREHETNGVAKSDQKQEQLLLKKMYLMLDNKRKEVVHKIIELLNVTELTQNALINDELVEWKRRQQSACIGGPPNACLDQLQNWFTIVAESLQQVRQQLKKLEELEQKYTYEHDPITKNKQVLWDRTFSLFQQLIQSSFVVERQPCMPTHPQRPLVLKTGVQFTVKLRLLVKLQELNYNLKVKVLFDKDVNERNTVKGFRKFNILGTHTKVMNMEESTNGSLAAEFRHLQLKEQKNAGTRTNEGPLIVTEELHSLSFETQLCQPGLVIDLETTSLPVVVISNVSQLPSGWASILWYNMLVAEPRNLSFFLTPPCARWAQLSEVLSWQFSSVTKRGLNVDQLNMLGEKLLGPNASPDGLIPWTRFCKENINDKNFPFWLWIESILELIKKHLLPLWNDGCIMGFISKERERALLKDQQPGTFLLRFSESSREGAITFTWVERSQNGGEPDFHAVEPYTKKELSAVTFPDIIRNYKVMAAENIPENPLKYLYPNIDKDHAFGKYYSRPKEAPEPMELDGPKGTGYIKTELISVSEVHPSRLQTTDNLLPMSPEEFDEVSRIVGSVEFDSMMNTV
Chain of UniProt O35185 (whole entry, looked up): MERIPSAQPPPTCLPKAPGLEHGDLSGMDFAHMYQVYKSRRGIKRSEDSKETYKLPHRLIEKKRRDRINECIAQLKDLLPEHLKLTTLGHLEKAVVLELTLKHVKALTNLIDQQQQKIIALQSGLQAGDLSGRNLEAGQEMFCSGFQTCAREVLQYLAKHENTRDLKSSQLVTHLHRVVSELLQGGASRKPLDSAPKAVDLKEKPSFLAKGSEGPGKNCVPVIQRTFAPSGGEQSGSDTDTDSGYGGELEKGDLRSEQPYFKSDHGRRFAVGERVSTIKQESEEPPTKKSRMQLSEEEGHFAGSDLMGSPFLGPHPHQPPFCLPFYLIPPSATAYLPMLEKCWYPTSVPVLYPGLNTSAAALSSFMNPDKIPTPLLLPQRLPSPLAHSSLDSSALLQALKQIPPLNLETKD
Chain of UniProt Q8BL48 (whole entry, looked up): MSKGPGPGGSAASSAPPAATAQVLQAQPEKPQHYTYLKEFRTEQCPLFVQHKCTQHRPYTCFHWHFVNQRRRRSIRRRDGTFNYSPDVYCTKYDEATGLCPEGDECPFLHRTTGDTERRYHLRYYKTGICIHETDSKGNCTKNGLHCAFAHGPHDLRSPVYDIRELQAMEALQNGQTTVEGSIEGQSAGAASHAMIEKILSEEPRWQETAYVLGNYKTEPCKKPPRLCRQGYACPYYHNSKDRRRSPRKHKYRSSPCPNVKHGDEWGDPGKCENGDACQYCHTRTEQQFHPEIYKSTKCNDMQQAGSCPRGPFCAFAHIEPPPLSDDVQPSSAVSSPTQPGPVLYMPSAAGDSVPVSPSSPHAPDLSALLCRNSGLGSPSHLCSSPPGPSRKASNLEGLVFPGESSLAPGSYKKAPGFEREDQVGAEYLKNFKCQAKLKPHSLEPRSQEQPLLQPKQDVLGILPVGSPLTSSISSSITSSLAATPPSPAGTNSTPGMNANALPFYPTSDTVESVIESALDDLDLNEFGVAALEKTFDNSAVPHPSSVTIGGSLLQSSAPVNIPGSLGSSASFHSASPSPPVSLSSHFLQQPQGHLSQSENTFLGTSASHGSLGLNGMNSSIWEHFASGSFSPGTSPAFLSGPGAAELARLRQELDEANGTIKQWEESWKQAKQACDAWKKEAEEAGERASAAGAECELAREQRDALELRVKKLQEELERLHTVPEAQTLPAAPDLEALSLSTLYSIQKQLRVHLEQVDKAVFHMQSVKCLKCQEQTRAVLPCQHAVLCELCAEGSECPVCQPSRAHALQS
Chain of UniProt P05549 (whole entry, looked up): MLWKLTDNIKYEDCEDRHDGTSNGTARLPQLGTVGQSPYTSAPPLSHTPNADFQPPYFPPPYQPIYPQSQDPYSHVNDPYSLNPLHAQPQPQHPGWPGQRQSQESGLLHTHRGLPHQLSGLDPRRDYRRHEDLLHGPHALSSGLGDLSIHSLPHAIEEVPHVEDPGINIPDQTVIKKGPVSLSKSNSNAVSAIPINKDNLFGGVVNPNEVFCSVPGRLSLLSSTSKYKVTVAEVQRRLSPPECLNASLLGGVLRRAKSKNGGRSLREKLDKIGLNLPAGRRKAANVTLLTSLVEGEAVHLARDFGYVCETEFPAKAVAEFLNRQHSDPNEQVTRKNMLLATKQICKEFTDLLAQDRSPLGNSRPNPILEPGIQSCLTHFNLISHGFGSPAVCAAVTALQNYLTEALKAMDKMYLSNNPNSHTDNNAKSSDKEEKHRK
Chain of UniProt Q06348 (whole entry, looked up): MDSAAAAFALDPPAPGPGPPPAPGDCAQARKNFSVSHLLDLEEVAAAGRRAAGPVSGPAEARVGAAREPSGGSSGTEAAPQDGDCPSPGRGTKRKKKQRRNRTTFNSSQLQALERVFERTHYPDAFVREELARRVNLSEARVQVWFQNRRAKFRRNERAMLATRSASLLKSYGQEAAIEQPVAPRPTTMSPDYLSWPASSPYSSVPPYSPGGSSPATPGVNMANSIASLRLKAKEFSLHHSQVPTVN

| Oligonucleotide | target | test | test system | conditions | binding |
| --- | --- | --- | --- | --- | --- |
| RNA 1 GCCUGAGCUCAGGC / RNA 2 GCCUGAGCUCAGGC (dsRNA 14 bp palindromic duplex) | FKBP3 | NMR | double-stranded RNA | – | binds |
| CTGTCAGCCCATGTGGCGTGGCCG (dsDNA) | Bhlhe40 full length assumed (Mus musculus, UniProt O35185) | EMSA | double-stranded DNA, one strand shown | not purified | no binding |
| CTCTAATTAGTGGTTT (dsDNA) | Prrx2 full length assumed (Mus musculus, UniProt Q06348) | EMSA | double-stranded DNA, one strand shown | without nuclear extract, not purified | binds |
| ACUUAGAAUUAUUAAUGA (ssRNA) | Unk 1-810 (Mus musculus, UniProt Q8BL48) | EMSA | RNA | – | binds |
| GGAUGAGGUAGUAGGUUGUAUAGUUUUAGGGUCACACCCACCACUGGGAGAUAACUAUACAAUCUACUGUCUUUCC (structured RNA) | KHSRP 68-525 (Homo sapiens, UniProt Q92945) | CD titration | folded RNA | – | binds |
| RNA 1 GAGCCUGAGCUCAGGCUC / RNA 2 GAGCCUGAGCUCAGGCUC (dsRNA 18 bp palindromic duplex) | FKBP3 | NMR | double-stranded RNA | – | binds |
| GAAGATAACGATATTTAAAA (dsDNA (Trichomonas vaginalis); 20-mer duplex) | MYB21 40-156 R84A (Trichomonas vaginalis, UniProt Q58HP3) | ITC | double-stranded DNA, one strand shown | – | no binding |
| CTGAAGTAATACCCCAGGATGTGAACAT (dsDNA) | TFAP2A full length assumed (Homo sapiens, UniProt P05549) | supershift with antibody, EMSA | double-stranded DNA, one strand shown | – | binds |
| RNA 1 GGAUGCCG / RNA 2 CGGCAUCC (dsRNA 8 bp duplex) | FKBP3 | NMR | double-stranded RNA | – | binds |
| GAUGGAGAUGGGCCCAUGAAUUGCAUUUUACUUUAAUC (ssRNA) | KHSRP full length assumed (Homo sapiens, UniProt Q92945) | UV crosslinking | RNA | – | binds |
| GAATAGTCTCATTAACACCGGTTCCCGGAAAGATCATCAAGAGCACACGGG (dsDNA) | STAT1 132-713 A656C/N658C (Homo sapiens, UniProt P42224) | EMSA | double-stranded DNA, one strand shown | – | binds |

Excerpt of the above:
| Oligonucleotide | target | test | test system | conditions | binding |
| --- | --- | --- | --- | --- | --- |
| ACUUAGAAUUAUUAAUGA (ssRNA) | Unk 1-810 (Mus musculus, UniProt Q8BL48) | EMSA | RNA | – | binds |
| GGAUGAGGUAGUAGGUUGUAUAGUUUUAGGGUCACACCCACCACUGGGAGAUAACUAUACAAUCUACUGUCUUUCC (structured RNA) | KHSRP 68-525 (Homo sapiens, UniProt Q92945) | CD titration | folded RNA | – | binds |
